Experimental data from different studies.
Every numbered part comes from another study and shows a few of its results, in no order. Several values in a cell are separate wells, animals, samples, runs or records.
Sequence of UniProt P15056 (whole entry, looked up): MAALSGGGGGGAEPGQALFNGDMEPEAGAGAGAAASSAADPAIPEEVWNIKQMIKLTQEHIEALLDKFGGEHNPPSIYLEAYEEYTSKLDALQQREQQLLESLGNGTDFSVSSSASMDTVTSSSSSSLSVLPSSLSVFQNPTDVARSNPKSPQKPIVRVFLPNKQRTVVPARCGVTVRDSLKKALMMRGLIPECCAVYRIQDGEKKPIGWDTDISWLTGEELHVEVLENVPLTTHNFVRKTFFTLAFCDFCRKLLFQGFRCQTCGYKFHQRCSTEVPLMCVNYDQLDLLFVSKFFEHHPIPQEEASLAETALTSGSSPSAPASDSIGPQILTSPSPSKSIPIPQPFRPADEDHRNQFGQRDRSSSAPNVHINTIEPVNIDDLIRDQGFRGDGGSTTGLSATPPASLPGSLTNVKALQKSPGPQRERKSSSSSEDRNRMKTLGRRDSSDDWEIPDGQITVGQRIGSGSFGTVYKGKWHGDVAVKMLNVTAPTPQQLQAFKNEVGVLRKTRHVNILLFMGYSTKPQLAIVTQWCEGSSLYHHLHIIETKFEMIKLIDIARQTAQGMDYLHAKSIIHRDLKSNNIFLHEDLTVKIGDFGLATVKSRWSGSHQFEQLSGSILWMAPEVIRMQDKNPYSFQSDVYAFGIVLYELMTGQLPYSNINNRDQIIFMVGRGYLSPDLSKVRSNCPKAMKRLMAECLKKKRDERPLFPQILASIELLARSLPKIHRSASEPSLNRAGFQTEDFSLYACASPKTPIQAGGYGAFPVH
Sequence of UniProt P62344 (whole entry, looked up): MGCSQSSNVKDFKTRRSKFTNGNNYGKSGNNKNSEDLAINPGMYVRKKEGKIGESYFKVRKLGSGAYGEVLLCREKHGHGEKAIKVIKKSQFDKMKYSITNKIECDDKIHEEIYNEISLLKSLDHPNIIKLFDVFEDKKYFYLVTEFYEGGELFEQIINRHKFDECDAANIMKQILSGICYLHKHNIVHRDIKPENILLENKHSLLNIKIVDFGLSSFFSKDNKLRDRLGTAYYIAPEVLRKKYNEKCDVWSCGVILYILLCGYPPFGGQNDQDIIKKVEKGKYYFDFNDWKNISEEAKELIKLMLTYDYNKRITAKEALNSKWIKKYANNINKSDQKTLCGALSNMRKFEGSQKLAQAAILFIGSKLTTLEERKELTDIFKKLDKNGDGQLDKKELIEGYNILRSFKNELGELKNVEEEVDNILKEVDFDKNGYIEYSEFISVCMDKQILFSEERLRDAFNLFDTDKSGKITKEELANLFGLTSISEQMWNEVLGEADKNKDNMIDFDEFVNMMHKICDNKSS

Series 1
Target: Eukaryotic initiation factor 4A-III (Homo sapiens, UniProt P38919)
Sequence of UniProt P38919 (whole entry, looked up): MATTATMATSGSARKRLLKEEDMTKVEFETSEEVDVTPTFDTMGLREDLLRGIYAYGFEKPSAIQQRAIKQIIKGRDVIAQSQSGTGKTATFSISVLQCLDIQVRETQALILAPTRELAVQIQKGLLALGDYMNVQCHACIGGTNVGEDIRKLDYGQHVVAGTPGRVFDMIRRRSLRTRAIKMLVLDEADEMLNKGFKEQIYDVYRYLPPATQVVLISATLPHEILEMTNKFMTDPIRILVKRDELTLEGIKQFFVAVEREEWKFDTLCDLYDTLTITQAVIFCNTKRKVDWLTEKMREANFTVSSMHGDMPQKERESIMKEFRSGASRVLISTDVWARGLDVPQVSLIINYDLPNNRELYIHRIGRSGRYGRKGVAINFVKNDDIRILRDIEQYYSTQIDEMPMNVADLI
Effect on: RNA clamping
Technique: fluorescence polarization
Concentration: concentration not given
With: FAM-labelled poly r(AG)8 RNA
Quantity: fluorescence polarization change
COc1cc(OC)c2c(c1)O[C@@]1(c3ccc(Br)cc3)[C@H](c3ccccc3)[C@@H](C(=O)N(C)C)[C@@H](O)[C@@]21O: 36.1 mP
COc1ccc([C@@]23Oc4cc(OC)cc(OC)c4[C@]2(OC)c2nc(-c4ccccc4)nc(OC)c2[C@H]3c2ccccc2)cc1: 3.4 mP
COCCN[C@]12c3c(OC)cc(OC)cc3O[C@@]1(c1ccc(OC)cc1)[C@H](c1ccccc1)C[C@@H]2O: 5.9 mP
COCCN[C@]12c3c(OC)cc(OC)cc3O[C@@]1(c1ccc(OC)cc1)[C@H](c1ccccc1)[C@@H](C(=O)N(C)C)[C@H]2O: 7.9 mP
COc1ccc(-c2nc3c(c(=O)[nH]2)[C@@H](c2ccccc2)[C@]2(c4ccc(OC)cc4)Oc4cc(OC)cc(OC)c4[C@]32O)cc1: -3.2 mP and 29.9 mP
COC(=O)[C@@H]1[C@@H](c2ccccc2)[C@]2(c3ccc(OC)cc3)Oc3cc(OC)cc(OC)c3[C@@]23NC(C(C)(C)C)=N[C@@]13O: 24.9 mP
CONC(=O)[C@@H]1[C@@H](O)[C@@]2(O)c3c(OC)cc(OC)cc3O[C@@]2(c2ccc(Br)cc2)[C@H]1c1ccccc1: 9.1 mP

Series 2
Cell line: Huh-7
Concentration: 10 µM
Time: 24 h
Quantity: viability
CC(Cc1ccc(O)cc1)NCC(O)c1cc(O)cc(O)c1 (stereo not shown): 99.6%
O=C1CCO1: 98.3%
C#C[C@]1(O)CC[C@H]2[C@@H]3CCC4=CC(=O)CC[C@]4(C)[C@H]3CC[C@@]21C: 97.2%
CC[C@@H](CO)NC(=O)[C@@H]1C=C2c3cccc4[nH]cc(c34)C[C@H]2N(C)C1: 88.7%
NCCc1cc(O)c(O)cc1O: 48.7%
CCOC(=O)c1cncn1[C@H](C)c1ccccc1: 98.5%
C[C@@H]1C[C@@H]([C@H](O)CC2CC(=O)NC(=O)C2)C(=O)[C@@H](C)C1: 53%

Further values, each from its own experiment
HTR2C: 5-hydroxytryptamine receptor 2C (HTR2C, Homo sapiens, UniProt P28335)
Sequence of UniProt P28335 (whole entry, looked up): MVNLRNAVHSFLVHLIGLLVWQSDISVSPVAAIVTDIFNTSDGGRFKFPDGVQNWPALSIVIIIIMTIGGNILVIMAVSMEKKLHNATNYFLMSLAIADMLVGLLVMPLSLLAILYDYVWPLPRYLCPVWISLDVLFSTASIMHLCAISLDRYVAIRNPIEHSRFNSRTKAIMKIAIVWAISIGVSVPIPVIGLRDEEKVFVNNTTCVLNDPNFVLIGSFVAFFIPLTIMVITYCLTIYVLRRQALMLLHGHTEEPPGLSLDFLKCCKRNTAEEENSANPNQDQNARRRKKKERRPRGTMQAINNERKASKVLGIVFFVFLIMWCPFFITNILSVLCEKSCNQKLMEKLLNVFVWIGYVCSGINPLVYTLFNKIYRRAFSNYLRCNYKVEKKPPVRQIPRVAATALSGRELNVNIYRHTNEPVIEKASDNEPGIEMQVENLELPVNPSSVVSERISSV
CCCOc1ccc([C@H]2[C@H](C(=O)O)[C@@H](c3ccc4c(c3)OCO4)CN2CC(=O)Nc2c(CC)cccc2CC)cc1  inhibition (HTR2C; binding, radioligand binding; 10 µM): -5.44%
CN[C@@H]1C[C@H]2O[C@@](C)([C@@H]1OC)n1c3ccccc3c3c4c(c5c6ccccc6n2c5c31)C(=O)NC4  remaining activity (BRAF (Homo sapiens, UniProt P15056); enzyme activity, inhibitor; 0.5 µM; reference: control): 106% and 113%
CN(C)C(=O)Cn1cc(-c2nc([C@@](C)(c3ccc(-c4cnc(N)nc4)cc3)C3CC3)no2)cn1  inhibition (HTR2C; binding, radioligand binding; 10 µM): 0.496%
Cc1nc(N2CC[C@@H](O)C2)ncc1-c1cc(C(F)(F)F)cc2[nH]ncc12  remaining binding (CDPK1 (Plasmodium falciparum, UniProt P62344); cell-free assay, competition with immobilised ligand; 1 µM): 100%
CC1=C(C#N)[C@@H](c2ccc3[nH]nc(C)c3c2)C(C#N)=C(c2ccc(Cl)cc2)N1  inhibition (HTR2C; binding, radioligand binding; 10 µM): 71.8%

Repeated from above (series 1):
COC(=O)[C@@H]1[C@@H](c2ccccc2)[C@]2(c3ccc(OC)cc3)Oc3cc(OC)cc(OC)c3[C@@]23NC(C(C)(C)C)=N[C@@]13O: 24.9 mP
COc1cc(OC)c2c(c1)O[C@@]1(c3ccc(Br)cc3)[C@H](c3ccccc3)[C@@H](C(=O)N(C)C)[C@@H](O)[C@@]21O: 36.1 mP
